Measured values pooled from the literature.
Compare with care: the assays were run in different laboratories. Values joined by “and” are separate records of one study, mostly repeats; a detail may differ. Numbers after ± are the reported error.

SMILES = CCc1c(-c2ccc3[nH]ncc3c2)cnc(N)c1-c1ccc(O)cc1; tested on = CHP-212 resistant sublines (heterozygous USP7 V517F); assay = cell viability; setting = 0.1953 µM; endpoint = viability; result = 106% and 101%
SMILES = NC[C@H]1O[C@H](O[C@H]2[C@H](O)[C@@H](O[C@H]3O[C@H](Cn4cc(CNC(=S)Nc5ccc6c(c5)C(=O)OC65c6ccc(O)cc6Oc6cc(O)ccc65)nn4)[C@@H](O)[C@H](N)[C@H]3O)[C@H](N)C[C@@H]2N)[C@H](O)[C@@H](O)[C@@H]1O; tested on = C2C12; assay = flow cytometry; setting = 5 µM, 24 h, unit not given; scale = relative to: normalized fluorescence; endpoint = cellular uptake; result = 5 ± 0.1
SMILES = N[C@@H](CNC(=O)N[C@@H](CS)C(=O)NCC(=O)O)C(=O)O; tested on = RPMI-2650; assay = immunoblot, measured: ZO-1, claudin-1, occludin; setting = 0.5 mM, up to 8 h; endpoint = tight junction protein level; result = no effect
SMILES = CN(C)C(=O)COC(=O)Cc1ccc(OC(=O)c2ccc(NC(=N)N)cc2)cc1; tested on = Calu-3; setting = 48 (unit not given); endpoint = CC50; result = > 500 µM
SMILES = C=CC(=O)Oc1ccc(OC)c(-c2c[nH]c3ncc(-c4cncc(C(=O)N(C)C)c4)cc23)c1; tested on = Ba/F3 parental, IL-3-dependent; setting = concentration not given; endpoint = cytotoxicity; result = not toxic
SMILES = CC(=O)NCCNc1ncc(C(=O)NC2=NN(c3ccc(Cl)c(Cl)c3)CC2)c(C)n1; tested on = K562; assay = CellTiter-Glo; setting = concentration not given; endpoint = cytotoxicity; result = not toxic
SMILES = Cc1nc(Nc2ncc(C(=O)Nc3c(C)cccc3Cl)s2)cc(N2CCN(C(=O)CCOCCNC(=O)CN)CC2)n1; tested on = K562; assay = cell growth or viability, CCK-8; setting = 5 nM; endpoint = viability; result = 71% and 69%
SMILES = O=C(OC[C@@]1(O)C(=O)C=C[C@H]2[C@@H]1[C@H]1C=C[C@@H]2C(=O)[C@]1(O)COC(=O)c1ccccc1)c1ccccc1; tested on = K562; assay = MTT; setting = range over 50 to 100 µg/mL; endpoint = viability; result = 8.73 to 15.4%
SMILES = COC1CN([C@H]2CC[C@H]([C@@]3(C)Oc4c(Cl)cc(C(=O)NCc5c(SC)cc(C)[nH]c5=O)c(C)c4O3)CC2)C1; assay = RNA-seq, measured: TREM2; system = human, whole blood; setting = dose not given, 24 h; scale = relative to: pretreatment baseline; endpoint = log2 fold change; result = 1.75
SMILES = CC[C@H](C)[C@H](NC(=O)[C@@H](NC(=O)[C@@H](N)CO)[C@@H](C)CC)C(=O)N[C@@H](CC(N)=O)C(=O)N[C@@H](Cc1ccccc1)C(=O)N[C@@H](CCC(=O)O)C(=O)N[C@@H](CCCCNC(=O)c1ccc2c(c1)C(=O)OC21c2ccc(O)cc2Oc2cc(O)ccc21)C(=O)N[C@@H](CC(C)C)C(=O)O; tested on = PANC-1, single microinjected; assay = CE-LIF; setting = 100 µM, 2 min, 37 °C; endpoint = intact peptide remaining; result = 8.8 ± 5.3%
SMILES = Cc1cc(/C=C/C#N)cc(C)c1Oc1nc(NC2CCN(Cc3ccc(S(C)(=O)=O)cc3)CC2)nc2ncccc12; tested on = MT4; assay = cell growth or viability, MTT; setting = 5 days; endpoint = CC50; result = 21.1 µM
SMILES = Cc1ncsc1-c1ccc(C(C)NC(=O)C2CC(O)CN2C(=O)C(NC(=O)CCCCCCCCCCN2CCCC(Nc3ncc(Cl)c(Nc4ccccc4S(=O)(=O)C(C)C)n3)C2)C(C)(C)C)cc1 (stereo not shown); tested on = 22Rv1; assay = RNA-seq, measured: STC2 mRNA; setting = concentration not given; scale = relative to: DMSO; endpoint = log2 fold change; result = -1.29
SMILES = O=C1NC2(CC2)COc2ncc(F)cc2[C@H]2COCCN2c2ccn3ncc1c3n2; tested on = CHL; setting = 150 µg/mL, 4 h, with rat liver S9; endpoint = structural aberrations; result = 1%
SMILES = C=CC(=O)Nc1cccc(Cn2ncc3cnc(Nc4cnn(CCOC)c4)nc32)c1; tested on = CDK11 human; assay = binding, KINOMEscan; setting = 100 nM; scale = lower = stronger binding; endpoint = percent of control; result = 100%
SMILES = Cn1c(=O)c(-c2ccccc2Cl)cc2cnc(Nc3cccc(S(C)(=O)=O)c3)nc21; tested on = HCT-8; assay = cell growth or viability; setting = 48 h; endpoint = CC50; result = > 25 µM
SMILES = O=C(O)/C=C\C(=O)NCCCOCCOCCOCCCNC(=O)/C=C\C(=O)O; tested on = Hs68; assay = MTT; setting = up to 1000 ppm, 24 h; endpoint = cytotoxicity; result = not toxic

Repeated from above:
SMILES = CN(C)C(=O)COC(=O)Cc1ccc(OC(=O)c2ccc(NC(=N)N)cc2)cc1; tested on = Calu-3; setting = 48 (unit not given); endpoint = CC50; result = > 500 µM
